Assay results gathered from unrelated publications.
Parts stem from different laboratories: compare values within a part only. Values joined by “and” are separate records of one study, mostly repeats; a detail may differ.
Sequence of UniProt Q13546 (whole entry, looked up): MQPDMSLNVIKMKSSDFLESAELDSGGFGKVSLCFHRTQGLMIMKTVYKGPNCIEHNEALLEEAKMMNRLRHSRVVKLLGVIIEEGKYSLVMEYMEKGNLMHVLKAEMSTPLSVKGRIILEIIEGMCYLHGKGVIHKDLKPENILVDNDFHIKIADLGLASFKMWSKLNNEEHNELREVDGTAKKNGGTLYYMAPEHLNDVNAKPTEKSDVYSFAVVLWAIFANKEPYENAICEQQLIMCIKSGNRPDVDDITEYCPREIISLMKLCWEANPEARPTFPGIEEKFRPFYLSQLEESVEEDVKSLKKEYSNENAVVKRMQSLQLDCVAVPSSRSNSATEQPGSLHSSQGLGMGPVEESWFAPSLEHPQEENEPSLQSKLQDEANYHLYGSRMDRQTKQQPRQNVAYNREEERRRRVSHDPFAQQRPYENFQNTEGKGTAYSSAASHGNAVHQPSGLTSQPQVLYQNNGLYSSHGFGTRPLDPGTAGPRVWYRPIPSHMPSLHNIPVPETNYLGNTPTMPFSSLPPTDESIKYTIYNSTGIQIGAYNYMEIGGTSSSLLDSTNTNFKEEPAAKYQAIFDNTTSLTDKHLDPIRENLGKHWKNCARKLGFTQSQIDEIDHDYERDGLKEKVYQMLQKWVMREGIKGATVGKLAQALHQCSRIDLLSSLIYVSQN
Sequence of UniProt Q13976 (whole entry, looked up): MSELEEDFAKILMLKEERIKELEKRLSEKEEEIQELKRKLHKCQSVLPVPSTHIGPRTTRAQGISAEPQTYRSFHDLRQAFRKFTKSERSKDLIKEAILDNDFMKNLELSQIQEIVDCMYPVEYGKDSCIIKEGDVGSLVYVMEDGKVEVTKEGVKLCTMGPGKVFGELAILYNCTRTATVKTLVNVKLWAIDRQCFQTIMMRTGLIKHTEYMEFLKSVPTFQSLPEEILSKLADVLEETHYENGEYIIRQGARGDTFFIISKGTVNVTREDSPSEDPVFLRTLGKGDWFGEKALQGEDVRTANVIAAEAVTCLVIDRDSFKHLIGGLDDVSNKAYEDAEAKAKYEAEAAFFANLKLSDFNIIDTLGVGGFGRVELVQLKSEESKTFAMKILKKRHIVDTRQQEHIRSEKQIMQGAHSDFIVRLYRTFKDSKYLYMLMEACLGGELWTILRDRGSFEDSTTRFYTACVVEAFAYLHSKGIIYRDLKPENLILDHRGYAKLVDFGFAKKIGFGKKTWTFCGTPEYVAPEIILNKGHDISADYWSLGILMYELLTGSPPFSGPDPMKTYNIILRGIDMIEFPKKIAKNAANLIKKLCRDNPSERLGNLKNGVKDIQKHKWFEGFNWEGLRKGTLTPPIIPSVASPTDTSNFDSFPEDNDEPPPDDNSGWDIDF
Sequence of UniProt O00444 (whole entry, looked up): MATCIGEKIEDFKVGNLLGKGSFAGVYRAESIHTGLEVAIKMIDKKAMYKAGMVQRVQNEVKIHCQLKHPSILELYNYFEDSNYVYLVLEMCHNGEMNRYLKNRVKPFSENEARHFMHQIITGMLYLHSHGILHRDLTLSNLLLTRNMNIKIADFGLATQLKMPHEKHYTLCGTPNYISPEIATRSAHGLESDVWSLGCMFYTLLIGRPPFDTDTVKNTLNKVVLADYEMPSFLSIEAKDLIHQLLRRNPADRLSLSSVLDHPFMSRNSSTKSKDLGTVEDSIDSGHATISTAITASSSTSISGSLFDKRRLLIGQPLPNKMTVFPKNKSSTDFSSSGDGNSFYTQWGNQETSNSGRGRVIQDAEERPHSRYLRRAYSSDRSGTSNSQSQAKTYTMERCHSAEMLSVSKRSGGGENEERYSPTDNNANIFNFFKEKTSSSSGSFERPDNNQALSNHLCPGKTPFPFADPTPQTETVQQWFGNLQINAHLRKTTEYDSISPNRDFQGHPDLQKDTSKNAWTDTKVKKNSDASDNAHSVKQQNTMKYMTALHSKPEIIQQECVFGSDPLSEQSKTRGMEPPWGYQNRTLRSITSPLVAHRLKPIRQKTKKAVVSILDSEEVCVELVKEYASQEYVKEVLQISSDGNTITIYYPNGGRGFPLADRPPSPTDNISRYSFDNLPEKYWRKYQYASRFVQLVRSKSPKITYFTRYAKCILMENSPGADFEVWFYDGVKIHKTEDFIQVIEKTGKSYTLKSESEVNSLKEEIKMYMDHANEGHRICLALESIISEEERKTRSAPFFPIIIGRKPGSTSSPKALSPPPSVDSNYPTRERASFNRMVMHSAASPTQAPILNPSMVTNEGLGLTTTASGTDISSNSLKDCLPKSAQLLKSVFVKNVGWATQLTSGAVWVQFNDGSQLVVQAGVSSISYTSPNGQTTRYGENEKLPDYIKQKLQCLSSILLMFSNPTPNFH
Sequence of UniProt Q15759 (whole entry, looked up): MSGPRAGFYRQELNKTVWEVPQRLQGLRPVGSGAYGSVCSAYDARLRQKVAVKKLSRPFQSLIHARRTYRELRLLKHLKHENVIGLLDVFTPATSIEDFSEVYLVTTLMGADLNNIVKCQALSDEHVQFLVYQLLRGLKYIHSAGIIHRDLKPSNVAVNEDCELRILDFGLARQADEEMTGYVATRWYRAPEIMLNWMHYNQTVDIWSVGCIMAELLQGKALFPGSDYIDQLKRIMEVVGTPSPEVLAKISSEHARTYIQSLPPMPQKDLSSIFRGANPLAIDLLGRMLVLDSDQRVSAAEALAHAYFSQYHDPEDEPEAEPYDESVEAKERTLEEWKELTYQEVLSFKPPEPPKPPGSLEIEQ
Sequence of UniProt P07333 (whole entry, looked up): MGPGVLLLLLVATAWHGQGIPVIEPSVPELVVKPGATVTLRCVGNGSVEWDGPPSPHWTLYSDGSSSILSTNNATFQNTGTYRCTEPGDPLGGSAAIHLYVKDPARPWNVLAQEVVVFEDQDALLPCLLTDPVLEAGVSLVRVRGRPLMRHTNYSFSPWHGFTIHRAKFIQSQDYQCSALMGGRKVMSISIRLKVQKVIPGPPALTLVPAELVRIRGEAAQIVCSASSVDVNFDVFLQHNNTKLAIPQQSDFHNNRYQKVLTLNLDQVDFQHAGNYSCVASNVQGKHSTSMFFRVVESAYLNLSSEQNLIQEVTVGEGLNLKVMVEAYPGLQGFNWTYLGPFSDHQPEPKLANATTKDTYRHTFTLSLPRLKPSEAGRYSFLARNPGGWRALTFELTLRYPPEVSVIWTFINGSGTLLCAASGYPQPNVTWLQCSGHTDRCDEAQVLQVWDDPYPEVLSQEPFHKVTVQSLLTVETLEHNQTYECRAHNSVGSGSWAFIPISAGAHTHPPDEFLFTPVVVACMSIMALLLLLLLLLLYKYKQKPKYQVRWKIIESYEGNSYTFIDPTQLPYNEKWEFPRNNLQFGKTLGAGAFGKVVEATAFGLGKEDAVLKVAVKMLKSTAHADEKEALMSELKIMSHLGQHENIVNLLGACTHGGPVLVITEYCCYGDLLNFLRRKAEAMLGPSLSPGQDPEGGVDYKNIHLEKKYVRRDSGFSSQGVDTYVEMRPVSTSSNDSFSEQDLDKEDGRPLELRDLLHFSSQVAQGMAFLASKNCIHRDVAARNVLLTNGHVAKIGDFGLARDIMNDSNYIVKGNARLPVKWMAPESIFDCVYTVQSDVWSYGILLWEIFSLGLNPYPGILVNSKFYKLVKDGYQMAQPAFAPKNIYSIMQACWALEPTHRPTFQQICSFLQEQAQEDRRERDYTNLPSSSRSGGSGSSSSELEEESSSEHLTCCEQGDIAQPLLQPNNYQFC
Sequence of UniProt P48729 (whole entry, looked up): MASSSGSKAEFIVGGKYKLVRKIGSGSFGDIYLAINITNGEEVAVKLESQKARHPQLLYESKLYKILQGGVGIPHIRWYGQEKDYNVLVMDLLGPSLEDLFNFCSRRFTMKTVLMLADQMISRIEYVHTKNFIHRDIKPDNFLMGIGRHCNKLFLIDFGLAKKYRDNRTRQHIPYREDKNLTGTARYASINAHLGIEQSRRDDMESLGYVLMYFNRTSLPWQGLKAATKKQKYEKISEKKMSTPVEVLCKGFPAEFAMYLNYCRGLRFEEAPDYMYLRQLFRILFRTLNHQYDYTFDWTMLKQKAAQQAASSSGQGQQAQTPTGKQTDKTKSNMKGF

Series 1 — technique: RNA Bind-n-Seq; form: RNA; matrix: in vitro; tested at: 1 µM; notes: whole 134-nt RNA, ends assumed; with: 150 mM KCl; relative to: input library; direction: higher = stronger binding
Target: Ras GTPase-activating protein-binding protein 1, RRM domain (G3BP1, Homo sapiens, UniProt Q13283)
Sequence of UniProt Q13283 (whole entry, looked up): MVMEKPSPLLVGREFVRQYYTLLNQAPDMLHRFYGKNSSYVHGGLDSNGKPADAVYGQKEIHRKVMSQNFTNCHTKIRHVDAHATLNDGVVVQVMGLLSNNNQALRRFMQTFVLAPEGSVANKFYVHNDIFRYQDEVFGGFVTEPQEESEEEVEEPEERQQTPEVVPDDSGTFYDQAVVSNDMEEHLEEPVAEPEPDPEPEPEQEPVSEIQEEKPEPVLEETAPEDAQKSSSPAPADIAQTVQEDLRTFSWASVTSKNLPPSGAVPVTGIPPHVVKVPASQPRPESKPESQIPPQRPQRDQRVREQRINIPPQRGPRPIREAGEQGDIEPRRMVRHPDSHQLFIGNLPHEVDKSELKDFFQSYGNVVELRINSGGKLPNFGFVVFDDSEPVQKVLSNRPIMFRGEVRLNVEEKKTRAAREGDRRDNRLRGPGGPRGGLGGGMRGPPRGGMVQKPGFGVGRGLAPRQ
| Oligonucleotide | log2 enrichment |
| --- | --- |
| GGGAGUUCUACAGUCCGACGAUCUGUGCUACACAUCGUAUGUACCGAAUCGGGGAAAAAAAGGAAAAAAAGGGGAAAAAAAGGGGAAAGUAUUAUGUUACGCCGUUCGGAUCUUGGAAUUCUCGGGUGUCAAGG | 0.111 |
| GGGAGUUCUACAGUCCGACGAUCUAACUUUAGAGGAGGAUCUGAUGGAUAUGGCAGUGGACGUGGAUUUGGGGAUGGCUAUAAUGGGUAUAGAGGAGGACCUGGAGGUGGCAAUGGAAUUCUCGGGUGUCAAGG | -0.323 |
| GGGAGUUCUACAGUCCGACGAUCCUGUGCUACACAUCGUAUGUACCGAAUCGGUUUUUUUGGGUUUUUUUGGGUUUUUUUGGGGAAAGUAUUAUGUUACGCCGUUCGGAUCUGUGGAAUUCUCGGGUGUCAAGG | -0.226 |
| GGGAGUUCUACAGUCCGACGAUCCCUCAAGUCCUGUGCUACACAUCGUAUGUACCGAAUCGGCGGGGCGGGGCGGAAAGUAUUAUGUUACGCCGUUCGGAUCUGCACUUCCAGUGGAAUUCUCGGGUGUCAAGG | -0.279 |
| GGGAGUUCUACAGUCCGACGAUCGCAGGAAGUAAAAACAAAUGGAAAUGCUUCGGAUAGUGGCAGGGGUGGGGGUUGCUAAGGAAAGGGUGGGCUGGGAGUGGGUAAAGAGUUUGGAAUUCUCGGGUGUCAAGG | 1.19 |
| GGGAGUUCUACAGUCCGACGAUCCAUGUUGAAAGACAUGCUUUUAUUUUUUUGUAAAACAAUAUAGGAGCUGUGUCUACUAUUAAAAGUGAAACAUUUUGGCAUGUUUGUUAAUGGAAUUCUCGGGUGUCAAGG | -0.569 |
| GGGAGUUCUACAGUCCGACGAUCUCCUGUGCUACACAUCGUAUGUACCGAAUCGGGGUUUGGGGUUUUUUUGGGGUUUGGGGAAAGUAUUAUGUUACGCCGUUCGGAUCUGCAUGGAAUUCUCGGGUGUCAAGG | 1.14 |
| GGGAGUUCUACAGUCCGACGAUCUCAAGUCCUGUGCUACACAUCGUAUGUACCGAAUCGGUUUUUUUGGUUUGGAGGAAAGUAUUAUGUUACGCCGUUCGGAUCUGCACUUCCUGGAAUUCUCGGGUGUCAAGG | -0.339 |

Series 2 — observed: cell-free assay; technique: competition with immobilised ligand; tested at: 0.1 µM
Compound: COCCOc1nc(-c2ccc(Cl)nc2)nc2c1CN(C(=O)c1ncn3ccccc13)CC2
| target | remaining binding |
| --- | --- |
| IKBKE (Homo sapiens, UniProt Q14164) | 100% |
| MAPK11 (Homo sapiens, UniProt Q15759) | 100% |
| KIT (Homo sapiens, UniProt P10721, A829P) | 88% |
| PRKD2 (Homo sapiens, UniProt Q9BZL6) | 100% |
| PLK4 (Homo sapiens, UniProt O00444) | 85% |
| STK11 (Homo sapiens, UniProt Q15831) | 100% |
| CSF1R (Homo sapiens, UniProt P07333) | 100% |
| CDK11A (Homo sapiens, UniProt Q9UQ88) | 100% |
| RIPK1 (Homo sapiens, UniProt Q13546) | 100% |
| PRKG1 (Homo sapiens, UniProt Q13976) | 87% |
| CSNK1A1 (Homo sapiens, UniProt P48729) | 98% |
| TLK2 (Homo sapiens, UniProt Q86UE8) | 100% |
| CAMK2G (Homo sapiens, UniProt Q13555) | 100% |
| CDKL3 (Homo sapiens, UniProt Q8IVW4) | 96% |
| PRKCH (Homo sapiens, UniProt P24723) | 97% |
| MYLK2 (Homo sapiens, UniProt Q9H1R3) | 94% |

Series 3 — technique: competition protein-binding microarray; form: double-stranded DNA, one strand shown; matrix: in vitro; tested at: 2 µM; with: Pho4 competitor, 0.05 µM; direction: higher = stronger binding
Target: Centromere-binding protein 1, full length, His-tagged (CBF1, Saccharomyces cerevisiae, UniProt P17106, residues 1-351)
Sequence of UniProt P17106 (whole entry, looked up): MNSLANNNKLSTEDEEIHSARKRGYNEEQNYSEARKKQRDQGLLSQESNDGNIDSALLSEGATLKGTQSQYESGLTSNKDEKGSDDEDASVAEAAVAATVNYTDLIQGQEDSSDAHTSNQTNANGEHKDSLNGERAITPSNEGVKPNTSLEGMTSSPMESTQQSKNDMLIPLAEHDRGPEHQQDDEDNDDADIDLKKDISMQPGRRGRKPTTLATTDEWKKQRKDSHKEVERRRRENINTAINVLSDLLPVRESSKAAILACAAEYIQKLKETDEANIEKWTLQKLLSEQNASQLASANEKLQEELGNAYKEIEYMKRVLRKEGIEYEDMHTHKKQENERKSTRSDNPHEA
Notes: whole 60-bp probe, lowest competitor level
| Oligonucleotide | fluorescence intensity [a.u.] |
| --- | --- |
| GTCTTGTCTCATTGCGAAGTGGGTGTCCCCACTTCAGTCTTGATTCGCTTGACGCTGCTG | 73.9 |
| ACTGCCAGGAACTGGCACGTTAGCCCTATTACGATCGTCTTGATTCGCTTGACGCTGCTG | 79.4 |
| TTTTTCTACAAAATGCACATGACAGGATGACCTTCCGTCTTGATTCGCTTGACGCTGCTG | 411 |
| GTAAATGCCGCCCATCACGTGGTGAAGAAAAGAAACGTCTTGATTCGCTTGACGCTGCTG | 4900 |
| CGTCCTAGCGATTGATAGGTGGGTGCCATGAGGAAGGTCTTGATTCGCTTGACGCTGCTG | 73.3 |
| TGCGCAACAACTTGTCACCAGACTTTATGTCTAGAAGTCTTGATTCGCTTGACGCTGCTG | 90.6 |
| TCGACTACTCAGTCGGACGTGGCCGTTCAGAAGGTGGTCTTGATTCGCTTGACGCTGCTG | 61.2 |
| TCCACCTTTGAAAACGGTGTGACGAAGCCCTTTCGAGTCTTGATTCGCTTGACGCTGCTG | 63.3 |

Single results of other studies
| Substance | tested on | assay | system | conditions | endpoint | value |
| --- | --- | --- | --- | --- | --- | --- |
| HSP90AB1 (Homo sapiens, UniProt P08238) | MYH9 (Homo sapiens, UniProt P35579) | cross-linking MS | cell fractions | with: DMTMM | cross-linked residues | E368 to K202 |
| c1ccc(Oc2ccc(Nc3c4c(nc5ccccc35)CCC4)cc2)cc1 | RAW264.7 | resazurin | – | 0.66 µM | cytotoxicity | -6% and -7% |
| CLIP1 (Homo sapiens, UniProt P30622) | MDH2 (Homo sapiens, UniProt P40926) | cross-linking MS | cell fractions | with: DHSO | cross-linked residues | E1122 to D221 |
| Cn1cc(-n2cc(Cc3c(Cl)cccc3Cl)c(=O)[nH]c2=O)cn1 | – | – | human, microsomes or S9 | 2 µM, 0.5 h | remaining compound | 49.4% |
| SYNCRIP (Homo sapiens, UniProt O60506) | HNRNPC (Homo sapiens, UniProt P07910) | cross-linking MS | cell fractions | with: DSSO | cross-linked residues | K356 to K176 |
| PHB1 (Homo sapiens, UniProt P35232) | SMCO1 (Homo sapiens, UniProt Q147U7) | cross-linking MS | cell fractions | with: DMTMM | cross-linked residues | E242 to K174 |
